Assay results from different studies.
Protocols differ between the studies behind these lines. ± gives the spread as reported.

SMILES | target or system | assay | system | conditions | measurement | result
CNC(=O)c1ccc(-c2cnn3ccc(C(=O)N(c4ccc(C#N)cn4)C(C)(C)C)cc23)cc1 | Cryptosporidium parvum | parasite growth, imaging | HCT-8 | intracellular | IC50 | 1030 nM
C/C(=C\c1ccco1)[N+](=O)[O-] | Leishmania braziliensis | parasite growth |  | 72 h, promastigote | IC50 | 2300 nM
[64Cu+2].c1ccc(CNCc2ccc(CN3CCCN4CCNCCCN(CC4)CC3)cc2)nc1 | CXCR4 |  | NOD/SCID mouse, U87 and U87-stb-CXCR4 xenografts, blood | iv, 90 min, ex vivo, added: AMD3465 25 mg/kg sc before tracer | tissue uptake | 1.23 ± 0.04 %ID/g
CCCCCCCCCC1CC2CCC3CC(CCCCCCCCC)NC(=N1)N23 (stereo not shown) | Candida glabrata | fungal growth | ATCC 90030 |  | IC50 | 2180 nM
CCCSC(=S)N1CCN(C(=O)/C=C/c2coc3ccccc3c2=O)CC1 | tomato spotted wilt virus | viral infection, half-leaf method | Nicotiana glutinosa | 500 µg/mL | protective effect | 48.7 ± 7.4%
COC1C=COC2(C)Oc3c(C)c(O)c4c(c3C2=O)C2=NC3(CCN(CC(C)C)CC3)NC2=C(NC(=O)C(C)=CC=CC(C)C(O)C(C)C(O)C(C)C(OC(=O)c2cccnc2)C1C)C4=O (stereo not shown) | Mycobacteroides abscessus |  | ATCC 19977 | 50% human serum | IC50 | 150 nM
Cc1cc(N2CCC(C#N)(C3(C)CC3)C2=O)cc(C(=O)NCc2cc(F)cc(-c3cnn(C)c3)c2)n1 (racemic) | Plasmodium falciparum | parasite growth, [3H]hypoxanthine incorporation | 7G8 | 72 h | IC50 | 18 nM
CCCCCCCCCC1CC2CCCC3CC(CCCCCCCCC)NC(=N1)N23 (stereo not shown) | Candida glabrata | fungal growth | ATCC 90030 |  | IC50 | 3750 nM
COc1cc(/C=C(\C#N)C(=O)c2ccc(O)c(O)c2)cc(I)c1O | Strongylocentrotus purpuratus | Ca2+ release, antagonist | sea urchin egg homogenate | added: cADPR 300 nM | IC50 | 3840 ± 390 nM
NNc1n[nH]c(=O)c2ccccc12 | Leishmania braziliensis | parasite growth, MTT |  | promastigote | IC50 | > 25000 nM
CCN(CC)CC#CCNc1ccnc2cc(Cl)ccc12 | Plasmodium falciparum | parasite growth, SYBR green I | 3D7 | 20% human serum | IC50 | 173 to 352 nM
NNc1nnc(NN)c2ccccc12 | Leishmania braziliensis | parasite growth, MTT |  | promastigote | IC50 | > 25000 nM
N=C(NO)NN=Cc1cnc2cc(C(F)(F)F)ccc2c1O | Human mastadenovirus C | viral replication, plaque reduction | A549, Ad5 McEwen | 6 days | IC50 | inactive
O=C(/C=C/c1coc2ccccc2c1=O)N1CCN(C(=S)SC2CC2)CC1 | tomato spotted wilt virus | viral infection, half-leaf method | Nicotiana glutinosa | 500 µg/mL | inactivation effect | 55.7 ± 2.5%
N=C(N)NCCC[C@@H]1NC(=O)[C@H](Cc2c[nH]c3ccccc23)NC(=O)[C@@H](CC2CCCCC2)NC(=O)[C@@H]2CCCN2C(=O)[C@@H](NC(=O)CCc2ccccc2)CCCNC1=O |  |  | C57BL/6J mouse, spinal cord | oral, 1 mg/kg, single dose, two-compartment model | beta elimination rate constant | 0.33 h⁻¹
CN1C(=O)[C@@H](Cc2ccc(O)cc2)NC(=O)CNC(=O)[C@H](Cc2ccc3ccccc3c2)NC(=O)[C@H](CCCNC(=N)N)NC(=O)[C@H]1CCCNC(=O)c1ccc(CNC(=O)CN2CCN(CC(=O)O)CCN(CC(=O)O)CCN(CC(=O)O)CC2)cc1 [gallium-68 labelled] |  |  | SCID mice, lymphoma xenograft, kidneys | intravenous, 2 h | tissue uptake | 2.4 ± 0.9 %ID/g
CNC(=O)c1ccc(-c2cnc3cnc(C(=O)N(C)c4ccc(Cl)cc4)cn23)cc1 | Cryptosporidium parvum | parasite growth, imaging | HCT-8 | intracellular | IC50 | 54 nM
O=[N+]([O-])/C(Br)=C/c1ccco1 | Leishmania braziliensis | parasite growth |  | 72 h, promastigote | IC50 | 1100 nM
COC1C=COC2(C)Oc3c(C)c(O)c4c(c3C2=O)C2=NC3(CCN(CC(C)C)CC3)NC2=C(NC(=O)C(C)=CC=CC(C)C(O)C(C)C(O)C(C)C(OC(=O)Nc2cccnn2)C1C)C4=O (stereo not shown) | Mycobacteroides abscessus |  | ATCC 19977 | 1:1 CAMHB:human serum | IC50 | 50 nM
CC1=C(C(=O)OC2CCCCCC2)C(c2ccc([N+](=O)[O-])cc2)C2=C(CC(C)(C)CC2=O)N1 (stereo not shown) | Strongylocentrotus purpuratus | Ca2+ release, antagonist | sea urchin egg homogenate | added: cADPR 300 nM | IC50 | 61 ± 14 nM
CNC(=O)c1ccc(-c2cnn3ccc(C(=O)N(C)c4ccc(C#N)cn4)cc23)cc1 | Cryptosporidium parvum | parasite growth, imaging | HCT-8 | intracellular | IC50 | 232 nM
COc1ccccc1NC(=O)OC1C(C)C(OC)C=COC2(C)Oc3c(C)c(O)c4c(c3C2=O)C2=NC3(CCN(CC(C)C)CC3)NC2=C(NC(=O)C(C)=CC=CC(C)C(O)C(C)C(O)C1C)C4=O (stereo not shown) | Mycobacteroides abscessus |  | ATCC 19977 | 1:1 CAMHB:human serum | IC50 | 150 nM

Excerpt of the above:
SMILES | target or system | assay | system | conditions | measurement | result
CCCSC(=S)N1CCN(C(=O)/C=C/c2coc3ccccc3c2=O)CC1 | tomato spotted wilt virus | viral infection, half-leaf method | Nicotiana glutinosa | 500 µg/mL | protective effect | 48.7 ± 7.4%
CNC(=O)c1ccc(-c2cnn3ccc(C(=O)N(C)c4ccc(C#N)cn4)cc23)cc1 | Cryptosporidium parvum | parasite growth, imaging | HCT-8 | intracellular | IC50 | 232 nM
C/C(=C\c1ccco1)[N+](=O)[O-] | Leishmania braziliensis | parasite growth |  | 72 h, promastigote | IC50 | 2300 nM
CCN(CC)CC#CCNc1ccnc2cc(Cl)ccc12 | Plasmodium falciparum | parasite growth, SYBR green I | 3D7 | 20% human serum | IC50 | 173 to 352 nM
